Experimental data from different studies.
Numbers after ± are the reported error. In brackets after ≈: the same amount, converted by molar mass.

CC(C)(C)CCN1CC2C(CNC(=O)c3cc(Cl)cc(Cl)c3)C2C1 (stereo not drawn)
tissue/plasma ratio (Sprague-Dawley rat, male; oral, 3 to 30 mg/kg range; baseline: brain over plasma): 16.9

CN1CC[C@@H](NC(=O)Nc2ccc(C#N)cc2)C[C@@H]1c1nc2ccccc2[nH]1
absolute oral bioavailability (healthy human volunteers; oral tablet vs intravenous, 100 mg oral, 50 mg intravenous; baseline: dose-normalised AUC(0-inf) oral over intravenous): 77.1%

Cn1c(-c2ccc(C(N)=O)cc2F)nnc1C(C)(C)Oc1c(F)cc(Cl)cc1F
half-life mean (healthy young Japanese subjects, plasma; oral, 10 mg once daily, day 18, 14 days dosing): 24.2 h

NC(=O)OCC(COC(N)=O)c1ccccc1
hepatocyte vacuolization score (Sprague-Dawley rat, male, liver; oral, 300 mg/kg, 24 h, single low dose; direction not given): 0

O=C(/C=C/c1cccc(S(=O)(=O)Nc2ccccc2)c1)NO
clearance (human mild liver dysfunction, plasma; intravenous, 400 mg/m^2, 30 min infusion, cycle 1 day -7): 542 mL/min/m²

CCOc1cc(C(C)(C)C)ccc1C1=N[C@@](C)(c2ccc(Cl)cc2)[C@@](C)(c2ccc(Cl)cc2)N1C(=O)N1CCN(CCCS(C)(=O)=O)CC1
Tmax (athymic nude mice, orthotopic GBM, contralateral brain hemisphere; oral, 100 mg/kg): 8 h

COc1ccc2[nH]cc(CCNC(C)=O)c2c1
concentration (wild-type FVB/N lactating female mice, plasma; intravenous, 10 mg/kg, 30 min): 513000 ± 413000 ng/mL

Nc1ccn([C@@H]2O[C@H](CO)[C@@H](O)C2(F)F)c(=O)n1
measured concentration (extracted rat plasma; 125.00 ng/mL, 8 h, 10 °C, autosampler stability, mid QC): 136 ± 1.8 ng/mL

COc1cccc2c1C(=O)c1c(O)c3c(c(O)c1C2=O)C[C@@](O)(C(=O)CO)C[C@@H]3O[C@H]1C[C@H](N)[C@H](O)[C@H](C)O1
terminal half-life (ICR mouse, male, plasma; intravenous, 6.0 mg/kg): 3.21 h

CCCCCCCCC(=O)N[C@H]1CNC1=O
compound remaining (chemical stability; PBS; 1 µM, 24 h, pH 7.4): 100%

COc1ccc2[nH]c([S+]([O-])Cc3ncc(C)c(OC)c3C)nc2c1 (stereo not drawn)
t1/2 (UHPLC-MS/MS, noncompartmental; healthy Chinese volunteers, CYP2C19 *2/*3, plasma; oral, 20 mg single dose): 2.54 ± 0.7 h

CO[C@@H]1[C@H](O)[C@@H](CO)O[C@H]1n1ccc(=O)[nH]c1=O
terminal half-life (male CD-1 mice, plasma; intravenous, 1 mg/kg): ~5 h

CC(C)C[C@H](NC(=O)[C@H](CC(C)C)NC(=O)[C@@H](Cc1c[nH]c2ccccc12)NC(=O)[C@@H](NC(=O)[C@@H](Cc1c[nH]c2ccccc12)NC(=O)[C@@H](N)CCCCN)[C@@H](c1ccccc1)c1c[nH]c2ccccc12)C(N)=O
HPLC retention (RP-HPLC Kinetex Biphenyl; acetonitrile/water TFA gradient): 47.9 %B

COc1cccc2c1C(=O)c1c(O)c3c(c(O)c1C2=O)C[C@@](O)(C(=O)CO)C[C@@H]3O[C@H]1C[C@H](N)[C@H](O)[C@H](C)O1
terminal half-life (mouse, E0771 tumour-bearing, liver; intravenous, 92 µmol/kg): 26 h

CC(C)=CCC[C@](C)(O[C@@H]1O[C@H](CO)[C@@H](O)[C@H](O)[C@H]1O)[C@H]1CC[C@]2(C)[C@@H]1[C@H](O)C[C@@H]1[C@@]3(C)CC[C@H](O[C@@H]4O[C@H](CO)[C@@H](O)[C@H](O)[C@H]4O[C@@H]4O[C@H](CO)[C@@H](O)[C@H](O)[C@H]4O)C(C)(C)[C@@H]3CC[C@]12C
post-preparative stability accuracy (rat, extracted tissue homogenate QC samples; 0.5 µg/mL, 24 h, 15 °C, autosampler): 103 ± 7.7%

C[C@@H](O)[C@H]1C(=O)N2C(C(=O)O)=C(S[C@@H]3CN[C@H](C(=O)N(C)C)C3)[C@H](C)[C@H]12
time above MIC (microdialysis; pig, Danish Landrace, cancellous bone; intravenous, 1000 mg over 10 min, 450 min dosing interval, added: 0.25 µg/mL MIC; baseline: dosing interval): 57%

CN1CC[C@@H](NC(=O)Nc2ccc(C#N)cc2)C[C@@H]1c1nc2ccccc2[nH]1
unbound Cmax (human, severe hepatic impairment, fasted, plasma; oral, 100 mg single dose, geometric mean, fu × total): 65 ng/mL

O=C(O)[C@H](c1ccccc1Cl)N1CCc2sccc2C1
deviation from nominal (HPLC-MS/MS; feline EDTA plasma; 12 h, 4 °C, storage stability): 11%

CC(C)=CCC[C@](C)(O[C@@H]1O[C@H](CO)[C@@H](O)[C@H](O)[C@H]1O)[C@H]1CC[C@]2(C)[C@@H]1[C@H](O)C[C@@H]1[C@@]3(C)CC[C@H](O[C@@H]4O[C@H](CO)[C@@H](O)[C@H](O)[C@H]4O[C@@H]4O[C@H](CO)[C@@H](O)[C@H](O)[C@H]4O)C(C)(C)[C@@H]3CC[C@]12C
AUC (Sprague-Dawley rat, plasma; oral, 200 mg/kg ginsenoside Rb1): 664 ± 285 ng·h/mL

COc1ccc(-c2cc(=O)c3c(O)c(OC)c(OC)c(OC)c3o2)cc1OC
tissue to peel content ratio (C57BL/6 mouse, male, feces; oral, 1% w/w in diet, 6 weeks, orange peel extract diet; baseline: content in orange peel): 212%

Cc1nc2cccc(OCC(C)(C)C(=O)NC(C)C)c2c(N)c1C(=O)O
AUC(0-t) (female Sprague-Dawley rat, plasma; intravenous, 1 mg/kg, single dose): 412 ng·h/mL

CCCC[C@@H]1NC(=O)[C@@H](NC(=O)[C@H](CCC(=O)O)NC(=O)CNC(=O)CN2CCN(CC(=O)O)CCN(CC(=O)O)CCN(CC(=O)O)CC2)CCCCNC(=O)C[C@@H](C(N)=O)NC(=O)[C@H](C(C)C)NC(=O)[C@@H]2CCCN2C(=O)[C@H](CCCNC(=N)N)NC(=O)CNC(=O)[C@H](Cc2c[nH]c3ccccc23)NC(=O)[C@H](CCCNC(=N)N)NC(=O)[C@@H](Cc2ccccc2)NC(=O)[C@H](Cc2c[nH]cn2)NC(=O)[C@H](CCC(=O)O)NC1=O [indium-111 labelled]
tissue uptake (C57 mice, B16/F10 lung metastatic melanoma, bone; intravenous, 0.037 MBq, 24 h): 0.03 ± 0.01 %ID/g

Cc1cccc(C)c1OCC(=O)N[C@@H](Cc1ccccc1)[C@@H](O)C[C@H](Cc1ccccc1)NC(=O)[C@H](C(C)C)N1CCCNC1=O
particle permeability (modified PAMPA Franz cell; phosphate buffer with HPMCAS; stock 5 mg/mL, 3 h, 25 °C, 254 nm particles, 300 rpm, added: 3% BSA receiver): 7.9 ± 0.2 ×10⁻⁶ cm/s

C[C@](N)(Cc1ccc(O)c(O)c1)C(=O)O
solubility (static gravimetric method; supercritical CO2, 587.2 kg/m3; 5 h, 323 K, pressure 12 MPa): 53 µg/mL (≈ 251 µM)

CCCSc1nc(N[C@@H]2C[C@H]2c2ccc(F)c(F)c2)c2nnn([C@@H]3C[C@H](OCCO)[C@@H](O)[C@H]3O)c2n1
AUC (male Wistar Han rats, plasma; oral, 60 mg/kg/day, week 52, carcinogenicity study): 129 µM·h

CCc1ccc(Cc2ccc3c(c2)[C@]2(OC3)O[C@H](CO)[C@@H](O)[C@H](O)[C@H]2O)cc1
tissue/plasma ratio (Wistar rat, male, small intestine; oral, dose not given, 1 h; baseline: small intestine over plasma concentration): 1360 ± 513

CC[C@H](C)[C@H](NC(=O)[C@H](Cc1ccccc1)NC(=O)[C@H](CCC(=O)O)NC(=O)[C@H](CCCCNC(=O)COCCOCCNC(=O)COCCOCCNC(=O)CC[C@H](NC(=O)CCCCCCCCCCCCCCCCC(=O)O)C(=O)O)NC(=O)[C@H](C)NC(=O)[C@H](C)NC(=O)[C@H](CCC(N)=O)NC(=O)CNC(=O)[C@H](CCC(=O)O)NC(=O)[C@H](CC(C)C)NC(=O)[C@H](Cc1ccc(O)cc1)NC(=O)[C@H](CO)NC(=O)[C@H](CO)NC(=O)[C@@H](NC(=O)[C@H](CC(=O)O)NC(=O)[C@H](CO)NC(=O)[C@@H](NC(=O)[C@H](Cc1ccccc1)NC(=O)[C@@H](NC(=O)CNC(=O)[C@H](CCC(=O)O)NC(=O)C(C)(C)NC(=O)[C@@H](N)Cc1cnc[nH]1)[C@@H](C)O)[C@@H](C)O)C(C)C)C(=O)N[C@@H](C)C(=O)N[C@@H](Cc1c[nH]c2ccccc12)C(=O)N[C@@H](CC(C)C)C(=O)N[C@H](C(=O)N[C@@H](CCCNC(=N)N)C(=O)NCC(=O)N[C@@H](CCCNC(=N)N)C(=O)NCC(=O)O)C(C)C
average steady-state concentration (human highest body weight; 1.0 mg once weekly, 116.8-198.3 kg): 21 nmol/L

Cc1[nH]c(=O)c(CNC(=O)c2ccno2)c2c1CCCC2
kinetic solubility (U-HPLC; 20% DMSO in water): 280 µg/mL (≈ 973 µM)

CN1CCc2nc(C(=O)N[C@@H]3C[C@@H](C(=O)N(C)C)CC[C@@H]3NC(=O)C(=O)Nc3ccc(Cl)cn3)sc2C1
Ctrough (human; 60 mg once daily, day 4): 15.4 ± 6.19 ng/mL

COc1ccc2cc3[n+](cc2c1OC)CCc1cc2c(cc1-3)OCO2
measured concentration (rat plasma QC sample; 640 ng/mL nominal, 24 h, high QC level autosampler stability): 639 ± 12.4 ng/mL

C=C(C)[C@@H]1CC[C@]2(NCCN3CCS(=O)(=O)CC3)CC[C@]3(C)[C@H](CC[C@@H]4[C@@]5(C)CC=C(C6=CC[C@@](CF)(C(=O)O)CC6)C(C)(C)[C@@H]5CC[C@]43C)[C@@H]12
placebo-corrected QRS change (healthy human; oral, 100 and 500 mg, Holter ECG, post-dose time points; baseline: baseline): < 1 ms

COc1ccc(-c2oc3c(OC)c(OC)c(OC)c(OC)c3c(=O)c2OC)cc1OC
tissue to peel content ratio (C57BL/6 mouse, male, liver; oral, 1% w/w in diet, 6 weeks, orange peel extract diet; baseline: content in orange peel): 0.042%

CC[C@@]1(O)C(=O)OCc2c1cc1n(c2=O)Cc2cc3c(CN(C)C)c(O)ccc3nc2-1
AUC(0-inf) increase (human patients, plasma; oral, dose not given, added: pazopanib; baseline: compound alone): 1.7 fold

CC[C@H](C)[C@@H]1NC(=O)[C@H](Cc2ccc(O)cc2)NC(=O)[C@@H](N)CSSC[C@@H](C(=O)N2CCC[C@H]2C(=O)N[C@@H](CC(C)C)C(=O)NCC(N)=O)NC(=O)[C@H](CC(N)=O)NC(=O)[C@H](CCC(N)=O)NC1=O
AUC above baseline (microdialysis, radioimmunoassay; C57BL/6J male mice, wild type, amygdala extracellular fluid; intraperitoneal, 12 µg total, incremental area over baseline): 37.9 ± 12.1 pg·30 min/sample

Cc1ccc(-c2ncc(Cl)cc2-c2ccc(S(C)(=O)=O)cc2)cn1
AUC(0-24h) (patients after hip surgery, plasma; oral, 120 mg, subgroup): 22600 ng·h/mL

CNCc1ccc(-c2[nH]c3cc(F)cc4c3c2CCNC4=O)cc1
AUC(0-12 h) (human, plasma; oral, 600 mg twice daily, steady state, median): 14700 ng·h/mL

Some of these lines once more:
NC(=O)OCC(COC(N)=O)c1ccccc1
hepatocyte vacuolization score (Sprague-Dawley rat, male, liver; oral, 300 mg/kg, 24 h, single low dose; direction not given): 0

O=C(/C=C/c1cccc(S(=O)(=O)Nc2ccccc2)c1)NO
clearance (human mild liver dysfunction, plasma; intravenous, 400 mg/m^2, 30 min infusion, cycle 1 day -7): 542 mL/min/m²

CCOc1cc(C(C)(C)C)ccc1C1=N[C@@](C)(c2ccc(Cl)cc2)[C@@](C)(c2ccc(Cl)cc2)N1C(=O)N1CCN(CCCS(C)(=O)=O)CC1
Tmax (athymic nude mice, orthotopic GBM, contralateral brain hemisphere; oral, 100 mg/kg): 8 h

COc1ccc2[nH]cc(CCNC(C)=O)c2c1
concentration (wild-type FVB/N lactating female mice, plasma; intravenous, 10 mg/kg, 30 min): 513000 ± 413000 ng/mL

Nc1ccn([C@@H]2O[C@H](CO)[C@@H](O)C2(F)F)c(=O)n1
measured concentration (extracted rat plasma; 125.00 ng/mL, 8 h, 10 °C, autosampler stability, mid QC): 136 ± 1.8 ng/mL
